{"data": "Published values from different studies", "note": "Each numbered part is a random draw from the data of one study; scales do not carry over between parts. Positions count from the first letter of the parent shown."}
{"data": "Set 1", "target": "ABI1, truncated, D143A, DHFR fusion (Arabidopsis thaliana)", "technique": "DHFR PCA, deep sequencing", "sample": "yeast", "setting": "methotrexate growth selection, single substitutions", "with": "(+)-ABA 0 µM", "relative to": "wild-type fitted maximum", "reading": "higher = stronger binding", "starting sequence": "PYL1, truncated, DHFR fusion (Arabidopsis thaliana); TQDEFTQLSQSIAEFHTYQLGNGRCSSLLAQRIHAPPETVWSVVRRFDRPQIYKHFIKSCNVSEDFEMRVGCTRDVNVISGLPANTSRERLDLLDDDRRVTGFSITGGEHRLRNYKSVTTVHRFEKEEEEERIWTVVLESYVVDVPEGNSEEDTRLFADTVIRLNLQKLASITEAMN; partner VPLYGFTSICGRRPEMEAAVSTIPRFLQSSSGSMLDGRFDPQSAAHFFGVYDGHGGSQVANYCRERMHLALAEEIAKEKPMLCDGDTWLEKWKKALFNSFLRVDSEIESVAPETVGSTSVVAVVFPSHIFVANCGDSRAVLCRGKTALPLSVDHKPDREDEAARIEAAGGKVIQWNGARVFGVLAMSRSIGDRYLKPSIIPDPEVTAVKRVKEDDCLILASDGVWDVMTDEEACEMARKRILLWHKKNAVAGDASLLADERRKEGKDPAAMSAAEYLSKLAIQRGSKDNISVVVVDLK"}
{"Change": "S104W", "relative binding score [%]": -2.96}
{"Change": "Y141P", "relative binding score [%]": -1.29}
{"Change": "T73G", "relative binding score [%]": 1.95}
{"Change": "T39M", "relative binding score [%]": 30.4}
{"Change": "V100W", "relative binding score [%]": -5.45}
{"Change": "E89V", "relative binding score [%]": 2.13}
{"Change": "G81F", "relative binding score [%]": -1.1}
{"Change": "D3N", "relative binding score [%]": 18.4}
{"Change": "E109D", "relative binding score [%]": 69.3}
{"Change": "T119V", "relative binding score [%]": -8.27}
{"Change": "R45V", "relative binding score [%]": -3.13}
{"Change": "F124M", "relative binding score [%]": 52.3}
{"Change": "M176L", "relative binding score [%]": 9.37}
{"Change": "D92Y", "relative binding score [%]": 3.51}
{"Change": "S104N", "relative binding score [%]": -0.65}
{"Change": "Q51N", "relative binding score [%]": -16.4}
{"Change": "E151M", "relative binding score [%]": 20}
{"Change": "L29I", "relative binding score [%]": 33.5}
{"Change": "P146C", "relative binding score [%]": 12.2}
{"Change": "F5P", "relative binding score [%]": 1.43}
{"Change": "V40W", "relative binding score [%]": -3.15}
{"Change": "R90Q", "relative binding score [%]": 7.98}
{"Change": "R24V", "relative binding score [%]": 7}
{"Change": "D3L", "relative binding score [%]": 27.6}
{"Change": "A158K", "relative binding score [%]": -11.7}
{"data": "Set 2", "target": "CCNE2, cyclin fold, Cln2 fusion (human)", "technique": "yeast growth competition, sequencing", "sample": "yeast", "setting": "weak parent motif", "relative to": "not given", "reading": "higher = stronger binding", "starting sequence": "PKMYT1 docking peptide (human); SFEPRNLLSLFED; partner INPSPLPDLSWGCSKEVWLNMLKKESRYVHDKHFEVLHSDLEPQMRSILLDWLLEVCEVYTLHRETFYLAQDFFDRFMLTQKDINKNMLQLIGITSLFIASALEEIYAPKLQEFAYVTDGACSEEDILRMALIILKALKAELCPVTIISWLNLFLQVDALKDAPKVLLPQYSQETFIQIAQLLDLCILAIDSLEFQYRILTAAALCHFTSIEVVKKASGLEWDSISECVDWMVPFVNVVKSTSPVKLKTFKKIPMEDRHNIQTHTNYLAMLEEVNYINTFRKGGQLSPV"}
{"Change": "E3C", "normalised enrichment score": 0.53}
{"Change": "L7K", "normalised enrichment score": 0.0649}
{"Change": "L7A", "normalised enrichment score": 0.167}
{"Change": "R5C", "normalised enrichment score": 0.235}
{"Change": "R5Y", "normalised enrichment score": 0.27}
{"Change": "F11C", "normalised enrichment score": -0.683}
{"Change": "L10E", "normalised enrichment score": 0.339}
{"Change": "L7P", "normalised enrichment score": -0.682}
{"Change": "S1H", "normalised enrichment score": 0.0738}
{"Change": "S9Y", "normalised enrichment score": 0.664}
{"Change": "F2M", "normalised enrichment score": 0.126}
{"Change": "L7T", "normalised enrichment score": 0.125}
{"Change": "D13N", "normalised enrichment score": 0.944}
{"Change": "E12G", "normalised enrichment score": 0.0405}
{"Change": "N6C", "normalised enrichment score": 0.402}
{"Change": "P4Y", "normalised enrichment score": -0.467}
{"Change": "P4S", "normalised enrichment score": 0.347}
{"data": "Set 3", "target": "RNA binding protein fox-1 homolog 2, RRM domain, GST-SBP tag (RBFOX2, Homo sapiens, UniProt O43251-10, residues 100-194)", "technique": "RNA Bind-n-Seq", "form": "RNA", "sample": "in vitro", "concentration": "365 nM", "setting": "natural RNA segment, single round, ends assumed", "relative to": "no-protein control", "reading": "higher = stronger binding", "Construct (chain)": "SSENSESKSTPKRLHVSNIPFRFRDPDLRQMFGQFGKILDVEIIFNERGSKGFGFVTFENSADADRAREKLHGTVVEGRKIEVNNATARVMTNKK"}
{"Sequence": "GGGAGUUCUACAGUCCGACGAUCUGUUUCUUGCCUAGCAAACGAAGCUUUGCCCGCACAGCCUUGACUCGCGGCCCCAGGGCGGAGCCCAGCUGCGGGAGCUGCCGCUGCUCAGCCAGUGUCGGGAAGAGUUGUGGAAUUCUCGGGUGCCAA", "RBNS enrichment (R)": 0.228}
{"Sequence": "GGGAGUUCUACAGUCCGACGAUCUUGAGAAAAAAAUGUAUCAGACUUUUAUGAUUUGAAUGAAAUGUAUUAUAGAAAAAAAUAAACACUUAAAAUAAUGUUAGUCUCAUUACUAGUGGGUCAGGAUAUUUUUAUGGAAUUCUCGGGUGCCAA", "RBNS enrichment (R)": 3.51}
{"Sequence": "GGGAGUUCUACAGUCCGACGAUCUUGUAACCUACAAGUCACCAAACGAUGACUAGAAGCUGCAGUGCUGUACAGGAAUGUGAAGGGAGGCCUCUGAGCAGUCCAGGGUGUGCUUGACAAAGUCCCAAGUGCUCUGGAAUUCUCGGGUGCCAA", "RBNS enrichment (R)": 0.338}
{"Sequence": "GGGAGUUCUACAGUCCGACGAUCACACAGGUGGGGACUGGGCACAGCUCUUCACACCAUUCAUUCUGGUCAUUUCCCCCAAAGGCAUCCCAGCCUGGGGGCCAGUGGGGAACUGAGGGCAAGGGGAUAUAGUGUGGAAUUCUCGGGUGCCAA", "RBNS enrichment (R)": 0.492}
{"Sequence": "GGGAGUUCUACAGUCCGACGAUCGUAGCAGUGUCCUUUUCUGAGGAAGGAAGUCUUAAACCCUUUCCCCCCACCCCCUGGGAUGACUGCCUUGAUUCCCAUGGGGAACAACUUUAAAGAAAACCACCACAGCAUGGAAUUCUCGGGUGCCAA", "RBNS enrichment (R)": 1.62}
{"Sequence": "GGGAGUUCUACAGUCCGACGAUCUUGAGACCCCAGAGGACCAGAACGAUCUACGGAAAAUGCAGCUUCGAGAGUUGGCUCGCUUGAAUGGCACUCUACGGGAAGAUGAUAAUAGGAUCUUAAGGCCCUGGCAGUGGAAUUCUCGGGUGCCAA", "RBNS enrichment (R)": 0.897}
{"Sequence": "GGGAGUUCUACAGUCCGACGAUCAAAUCCUUGGAUAUUUUUAGAAGUCUGUAACUUUACACAAAUAAUGAAAUAAUUUUUAAUUCAAAGUUUCUCACCCUACUUGUUAAUUUGCCCCCAAGGAAAGUUGUUUUUGGAAUUCUCGGGUGCCAA", "RBNS enrichment (R)": 0.836}
{"Sequence": "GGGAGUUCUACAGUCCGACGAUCGACUCAAGAAAAUUAGACCACAAAUUUUGCAUUGUUCAUUGUAGCACUAUUGGUAAUAAAAUAACAAAUGUUUGUGCAUUUUUAUGUGAAGAUCCUUCUCGUAUUUCAUUUGGAAUUCUCGGGUGCCAA", "RBNS enrichment (R)": 0.523}
{"data": "Set 4", "target": "Fragile X messenger ribonucleoprotein 1, C-terminal low-complexity region (Fmr1, Mus musculus, UniProt P35922)", "technique": "RNA Bind-n-Seq", "form": "RNA", "sample": "in vitro", "concentration": "200 nM", "setting": "whole 134-nt RNA, ends assumed", "with": "150 mM KCl", "relative to": "input library", "reading": "higher = stronger binding"}
{"Sequence": "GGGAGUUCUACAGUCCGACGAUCUGGGAGGUGGAUUUUGUUUAUUUUUUUAGCUCAUUUCCAGGGGUGGGAAUUUUUGUUUAAUAUGUGUCAUGAAUAAAGUUGUUUUUGAAAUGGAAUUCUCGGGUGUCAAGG", "log2 enrichment": 0.348}
{"Sequence": "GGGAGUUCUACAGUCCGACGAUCCCUCAAGUCCUGUGCUACACAUCGUAUGUACCGAAUCGGUGGGGUGGUGGGGAAAGUAUUAUGUUACGCCGUUCGGAUCUGCACUUCCAGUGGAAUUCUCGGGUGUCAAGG", "log2 enrichment": 0.432}
{"Sequence": "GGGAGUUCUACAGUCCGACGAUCAGUCCUGUGCUACACAUCGUAUGUACCGAAUCGGGGUUUUUGGGGAGGGGAAAGGGGAAAGUAUUAUGUUACGCCGUUCGGAUCUGCACUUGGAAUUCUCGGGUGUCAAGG", "log2 enrichment": 0.56}
{"Sequence": "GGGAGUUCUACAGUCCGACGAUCUGGGAGGUGGAUUUUGUUUAAUUUUUUAGCUCAUUUCCAGGGGUGGGAAUUUUUUUUUAAUAUGUGUCAUGAAUAAAGUUGUUUUUGAAAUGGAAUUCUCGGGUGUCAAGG", "log2 enrichment": 0.195}
{"Sequence": "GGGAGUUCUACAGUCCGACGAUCUACAGGAGCUUCCUGGGACUGACCUGCCUGAUGCAAAUUUCUACUCGGACGGAAGACUUCAUCAUUGACACCCUCGAGCUUCGAAGUGACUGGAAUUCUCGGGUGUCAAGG", "log2 enrichment": -0.0763}
{"Sequence": "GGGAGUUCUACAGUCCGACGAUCCUCAAGUCCUGUGCUACACAUCGUAUGUACCGAAUCGGGAAAGGGAGGGUGGGAAAGUAUUAUGUUACGCCGUUCGGAUCUGCACUUCCAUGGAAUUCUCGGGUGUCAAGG", "log2 enrichment": 1.17}
{"Sequence": "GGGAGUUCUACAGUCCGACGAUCAGUCCUGUGCUACACAUCGUAUGUACCGAAUCGGGGAAAAAGGGAAAAAGGAAAAAGGAAAGUAUUAUGUUACGCCGUUCGGAUCUGCACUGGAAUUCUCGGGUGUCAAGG", "log2 enrichment": -0.396}
{"Sequence": "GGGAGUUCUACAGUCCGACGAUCAGUCCUGUGCUACACAUCGUAUGUACCGAAUCAAACCCAAACCCCCCCAAAUUUAAAAAAGUAUUAUGUUACGCCGUUCGGAUCUGCACUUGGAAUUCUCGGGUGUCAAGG", "log2 enrichment": -0.202}
{"Sequence": "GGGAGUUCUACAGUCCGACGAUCCUCAAGUCCUGUGCUACACAUCGUAUGUACCGAAUCGGUUGGGUUGGGGUUGGAAAGUAUUAUGUUACGCCGUUCGGAUCUGCACUUCCAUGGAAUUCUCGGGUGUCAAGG", "log2 enrichment": 0.0873}
{"note": "Some of these lines once more (set 2):"}
{"Change": "L10E", "normalised enrichment score": 0.339}
{"Change": "L7P", "normalised enrichment score": -0.682}
{"Change": "S1H", "normalised enrichment score": 0.0738}
{"Change": "S9Y", "normalised enrichment score": 0.664}
